# Assay results collected from several papers.
# A part holds a random share of what one study measured. Several values in a cell are separate wells, animals, samples, runs or records.

# Set 1
# Cell line: HEK-293T-ACE2-TMPRSS2
# Method: cell count
# Tested at: concentration not given
SMILES,viability [%]
Clc1ccc(-c2noc(CN3CCN(c4ncnc5ccccc45)CC3)n2)cc1,81
Cc1c[nH]c(-c2c(-c3ccccc3)ncn2Cc2ccccc2CN(C)C)n1,85
ClC(Cl)(Cl)c1nc2ccccc2n2nncc12,65
Cc1csc(NC(=O)C2CCN(S(=O)(=O)c3cc(C(=O)N4CCCCCC4)cs3)CC2)n1,74
Nc1nc(-c2ccc3c(c2)OCO3)cs1,100
Cc1cc(C(=O)N(Cc2ccccn2)C2CC2)sc1C,68
Cc1nn(-c2ccccc2)c2sc(C(=O)NCCCN3CCC(Cc4ccccc4)CC3)cc12,68
Cc1cc(C)n(-c2ccc(Cn3ncc(Cl)c(Cl)c3=O)cc2)n1,71
CC(=O)N1CCSc2ccc(S(=O)(=O)N3CCN(CCOc4ccc(Cl)cc4)CC3)cc21,74
CC(=O)N1CCCSc2ccc(S(=O)(=O)N3CCSc4ccccc43)cc21,77
Cn1c(=O)n(C)c2cc(C(=O)CSc3ccc(NC(=O)Nc4ccccc4)cc3)ccc21,77
Cc1nc(N2CCCCCCC2)ncc1C(C)NC(=O)c1c(C)noc1C (stereo not shown),107
Cc1noc(C)c1CCC(=O)NC1CC(=O)N(C2CCCCCC2)C1 (stereo not shown),110
COc1ccccc1Nc1c2c(nc3ccc(NC(=O)c4cccnc4)cc13)CCCC2,69
COc1ccc(C(=O)Nc2nc3c(s2)CN(Cc2ccccc2)CC3)cc1,71
CC(C)c1ccc(NC(=O)c2cn3c(n2)CCCC3)cc1,71
O=C1NC(c2cccc(F)c2)Nc2ccccc21 (stereo not shown),67
COCC1CCCCN1c1nc2nonc2nc1NCc1cccs1 (stereo not shown),107
Cc1nc(-c2ccc(C(=O)NCCCc3ccccc3)cc2)cs1,110
COc1ccc(CC(=O)Nc2cccc(-n3cnnn3)c2)cc1,74
COc1ccc(CNC(=O)C2(C)Cc3ccccc3C(=O)N2Cc2cccc(Cl)c2)cc1 (stereo not shown),69
Cc1nc(-c2cccc(Cl)c2)n(CC(=O)NCc2ccc3c(c2)OCO3)c(=O)c1CCO,147
Cc1cccc(-c2nnc(-c3nc(NCCCN4CCCC4=O)c4ccccc4n3)o2)c1,77
CCN1CCN(Cc2ccc(NC(=O)c3cc4c(C)nn(-c5ccc(Cl)cc5)c4s3)cc2)CC1,81
C[C@@H]1CC(=O)NN=C1c1ccc(NN=C(C#N)C#N)cc1,132

# Set 2
# Cell line: HEK-293T
# Read-out: pseudovirus infection
# Method: FDA-approved drug library counter-screen
# Organism: VSV pseudotyped with VSV-G
# Tested at: 10 µM
# Time: 16 h
# Baseline: vehicle-treated
SMILES,GFP-positive cells [%]
OC(CCCN1CCCCC1)(c1ccccc1)c1ccccc1,93
CC(=O)O[C@H]1C[C@@H]2CC[C@@H]3[C@H](CC[C@@]4(C)[C@H]3C[C@H]([N+]3(C)CCCCC3)[C@@H]4OC(C)=O)[C@@]2(C)C[C@@H]1[N+]1(C)CCCCC1,103
CN1CCC(=C2c3ccccc3CCc3cccnc32)CC1,103
CC(C)N1CCN(c2ccc(OCC3COC(Cn4cncn4)(c4ccc(Cl)cc4Cl)O3)cc2)CC1 (stereo not shown),75.7
CCn1cc(C(=O)O)c(=O)c2ccc(C)nc21,95.2
CC(C)[C@H](N)C(=O)OCC(CO)OCn1cnc2c(=O)nc(N)[nH]c21 (stereo partly shown),95.3
C[C@@H](c1nc(-c2ccc(C#N)cc2)cs1)[C@](O)(Cn1cncn1)c1cc(F)ccc1F,80.1
COc1c(N2CCNC(C)C2)c(F)cc2c(=O)c(C(=O)O)cn(C3CC3)c12 (stereo not shown),111
COC[C@@H](NC(C)=O)C(=O)NCc1ccccc1,101
CC(C)n1c(/C=C/C(O)CC(O)CC(=O)O)c(-c2ccc(F)cc2)c2ccccc21 (stereo not shown),118
CCCC(=O)O[C@]1(C(=O)CO)CC[C@H]2[C@@H]3CCC4=CC(=O)CC[C@]4(C)[C@H]3[C@@H](O)C[C@@]21C,81.3
COc1cc2c(Nc3ccc(Br)cc3F)ncnc2cc1OCC1CCN(C)CC1,107
CCN(CCO)CCCC(C)Nc1ccnc2cc(Cl)ccc12 (stereo not shown),80.5
C[C@@H](c1ncncc1F)[C@](O)(Cn1cncn1)c1ccc(F)cc1F,104
Cc1ccccc1C(=O)Nc1ccc(C(=O)N2CCCC(O)c3cc(Cl)ccc32)c(C)c1 (stereo not shown),116
CN(C)CCC[C@@]1(c2ccc(F)cc2)OCc2cc(C#N)ccc21,102
NCC1(CC(=O)O)CCCCC1,118
C[C@@H]1C[C@H]2[C@@H]3CCC4=CC(=O)C=C[C@]4(C)[C@@]3(Cl)[C@@H](O)C[C@]2(C)[C@@]1(OC(=O)c1ccco1)C(=O)CCl,93.8
O=S(=O)(O)Oc1ccc(C(c2ccc(OS(=O)(=O)O)cc2)c2ccccn2)cc1,108
COc1cc([C@@H]2c3cc4c(cc3[C@@H](O[C@@H]3O[C@@H]5CO[C@@H](c6cccs6)O[C@H]5[C@H](O)[C@H]3O)[C@H]3COC(=O)[C@H]23)OCO4)cc(OC)c1O,68.9
CC1CNc2c(cccc2S(=O)(=O)N[C@@H](CCCNC(=N)N)C(=O)N2CC[C@@H](C)C[C@@H]2C(=O)O)C1 (stereo partly shown),99.4
C=C(c1ccc(C(=O)O)cc1)c1cc2c(cc1C)C(C)(C)CCC2(C)C,84
COC(=O)c1ccccc1O,114
Nc1cccc2c1C(=O)N(C1CCC(=O)NC1=O)C2=O (stereo not shown),114
C#C[C@]1(O)CC[C@H]2[C@@H]3CCc4cc(O)ccc4[C@H]3CC[C@@]21C,80.1

# Further values, each from its own experiment
Structure (SMILES),tested on,system,conditions,how to read,measurement,value
CO[C@@H]1[C@@H](OC(N)=O)[C@@H](O)[C@H](Oc2ccc3c(O)c(NC(=O)c4ccc(O)c(CC=C(C)C)c4)c(=O)oc3c2C)OC1(C)C,RPE-1 BRCA2-/-,,100 µM,baseline: untreated,surviving fraction,0.808 and 0.715
COc1ccc(-c2c(Nc3ccccn3)[nH]c3c(C4=CCCCC4)c(-c4ccccc4)nn3c2=O)cc1,,patients with advanced malignancies,"oral, dose not given, treatment-emergent adverse events",,grade 3 tumour pain incidence,5%

# A few entries again (set 2):
SMILES,GFP-positive cells [%]
CCn1cc(C(=O)O)c(=O)c2ccc(C)nc21,95.2
O=S(=O)(O)Oc1ccc(C(c2ccc(OS(=O)(=O)O)cc2)c2ccccn2)cc1,108
CC(=O)O[C@H]1C[C@@H]2CC[C@@H]3[C@H](CC[C@@]4(C)[C@H]3C[C@H]([N+]3(C)CCCCC3)[C@@H]4OC(C)=O)[C@@]2(C)C[C@@H]1[N+]1(C)CCCCC1,103
C#C[C@]1(O)CC[C@H]2[C@@H]3CCc4cc(O)ccc4[C@H]3CC[C@@]21C,80.1
COc1cc2c(Nc3ccc(Br)cc3F)ncnc2cc1OCC1CCN(C)CC1,107
CC1CNc2c(cccc2S(=O)(=O)N[C@@H](CCCNC(=N)N)C(=O)N2CC[C@@H](C)C[C@@H]2C(=O)O)C1 (stereo partly shown),99.4
C=C(c1ccc(C(=O)O)cc1)c1cc2c(cc1C)C(C)(C)CCC2(C)C,84
